Assay results of several laboratories.
Protocols differ between the studies behind these lines. Numbers after ± are the reported error.
rep main protease: Replicase polyprotein 1ab, main protease (rep, Severe acute respiratory syndrome coronavirus 2, UniProt P0DTD1)
Spike glycoprotein: Spike glycoprotein (Severe acute respiratory syndrome coronavirus 2, UniProt P0DTC2)
Chain of UniProt Q5XXP4 (whole entry, looked up): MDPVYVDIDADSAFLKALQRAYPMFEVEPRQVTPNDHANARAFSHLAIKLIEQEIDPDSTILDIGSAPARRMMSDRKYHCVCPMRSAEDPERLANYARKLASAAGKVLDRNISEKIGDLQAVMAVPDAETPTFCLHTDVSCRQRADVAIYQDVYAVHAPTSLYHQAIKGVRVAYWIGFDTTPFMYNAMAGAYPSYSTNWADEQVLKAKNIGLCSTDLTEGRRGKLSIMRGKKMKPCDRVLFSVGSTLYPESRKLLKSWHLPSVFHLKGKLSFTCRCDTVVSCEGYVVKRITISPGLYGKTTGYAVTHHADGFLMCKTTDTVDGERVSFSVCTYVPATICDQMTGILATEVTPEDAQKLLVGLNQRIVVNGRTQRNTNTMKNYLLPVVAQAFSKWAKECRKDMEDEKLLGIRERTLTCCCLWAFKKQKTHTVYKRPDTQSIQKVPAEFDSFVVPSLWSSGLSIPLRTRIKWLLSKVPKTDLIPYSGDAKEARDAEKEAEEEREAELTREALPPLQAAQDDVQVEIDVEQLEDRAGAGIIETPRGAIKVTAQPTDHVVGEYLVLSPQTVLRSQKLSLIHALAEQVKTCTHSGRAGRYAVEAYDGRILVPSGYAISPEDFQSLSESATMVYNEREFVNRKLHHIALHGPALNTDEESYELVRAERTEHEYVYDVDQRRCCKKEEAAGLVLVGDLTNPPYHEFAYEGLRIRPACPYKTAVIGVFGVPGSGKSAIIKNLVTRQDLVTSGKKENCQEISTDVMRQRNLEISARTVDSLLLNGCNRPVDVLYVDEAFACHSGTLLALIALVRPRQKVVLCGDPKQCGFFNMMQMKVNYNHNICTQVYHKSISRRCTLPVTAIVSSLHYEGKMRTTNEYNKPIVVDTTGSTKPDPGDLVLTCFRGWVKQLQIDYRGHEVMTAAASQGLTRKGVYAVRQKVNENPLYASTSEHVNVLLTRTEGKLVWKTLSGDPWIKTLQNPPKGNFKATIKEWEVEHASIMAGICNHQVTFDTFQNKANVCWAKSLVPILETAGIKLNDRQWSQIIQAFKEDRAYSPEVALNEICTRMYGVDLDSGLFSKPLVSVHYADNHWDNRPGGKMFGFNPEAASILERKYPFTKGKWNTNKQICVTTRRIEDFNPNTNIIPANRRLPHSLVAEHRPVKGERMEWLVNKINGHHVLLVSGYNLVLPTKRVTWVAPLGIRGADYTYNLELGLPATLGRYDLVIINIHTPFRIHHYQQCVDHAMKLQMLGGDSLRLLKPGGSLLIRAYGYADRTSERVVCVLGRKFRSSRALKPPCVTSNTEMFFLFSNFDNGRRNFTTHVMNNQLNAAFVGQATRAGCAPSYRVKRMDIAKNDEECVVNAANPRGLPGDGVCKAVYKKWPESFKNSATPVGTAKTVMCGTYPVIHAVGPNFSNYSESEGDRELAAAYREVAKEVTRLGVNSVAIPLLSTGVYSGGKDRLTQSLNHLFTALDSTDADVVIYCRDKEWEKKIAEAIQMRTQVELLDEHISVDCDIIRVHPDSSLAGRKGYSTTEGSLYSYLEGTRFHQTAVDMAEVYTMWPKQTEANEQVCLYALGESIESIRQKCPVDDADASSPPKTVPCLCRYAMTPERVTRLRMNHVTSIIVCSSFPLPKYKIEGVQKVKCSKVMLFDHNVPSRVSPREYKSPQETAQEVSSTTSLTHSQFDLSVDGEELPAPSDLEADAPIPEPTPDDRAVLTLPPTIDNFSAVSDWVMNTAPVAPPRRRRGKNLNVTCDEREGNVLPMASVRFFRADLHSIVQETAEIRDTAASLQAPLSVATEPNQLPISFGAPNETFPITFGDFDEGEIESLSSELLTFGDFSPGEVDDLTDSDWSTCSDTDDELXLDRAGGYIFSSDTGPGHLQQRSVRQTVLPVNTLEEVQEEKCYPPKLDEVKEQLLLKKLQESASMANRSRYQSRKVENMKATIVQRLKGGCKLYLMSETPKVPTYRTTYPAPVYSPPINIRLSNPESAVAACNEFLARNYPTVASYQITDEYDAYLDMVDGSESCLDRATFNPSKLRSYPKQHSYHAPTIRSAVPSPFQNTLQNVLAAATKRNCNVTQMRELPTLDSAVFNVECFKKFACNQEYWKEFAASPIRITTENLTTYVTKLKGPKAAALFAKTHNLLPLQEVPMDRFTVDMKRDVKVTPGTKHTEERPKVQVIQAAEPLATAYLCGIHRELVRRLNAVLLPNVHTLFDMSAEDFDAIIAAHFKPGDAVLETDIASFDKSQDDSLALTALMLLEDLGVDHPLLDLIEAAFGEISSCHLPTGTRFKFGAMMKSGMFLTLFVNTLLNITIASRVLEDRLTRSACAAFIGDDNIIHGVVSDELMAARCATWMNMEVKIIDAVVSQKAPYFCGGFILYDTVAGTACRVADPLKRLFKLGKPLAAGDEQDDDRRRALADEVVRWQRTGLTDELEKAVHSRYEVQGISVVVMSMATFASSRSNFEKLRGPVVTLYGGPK
Chain of UniProt Q7BQ98 (whole entry, looked up): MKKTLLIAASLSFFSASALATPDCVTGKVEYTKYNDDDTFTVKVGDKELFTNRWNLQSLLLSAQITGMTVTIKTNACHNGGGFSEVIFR

Cn1cnc(Cn2c(=O)[nH]/c(=N\c3cc4cn(C)nc4cc3Cl)n(Cc3cc(F)c(F)cc3F)c2=O)n1 — patients with adverse event (human, all renal function groups; oral, 375 mg, treatment-related decreased GFR, Mild severity): 0%
CC(C)(O)C(F)(F)C(=O)N[C@@H](CNc1ccc2nnnn2n1)c1ccc2ccccc2c1 — inhibition (rep main protease; enzyme activity, inhibitor; 5 µM, run 2): 14.7%
Cc1cc(C2CCCCC2)n(O)c(=O)c1 — Emax (ACE2 (Homo sapiens, UniProt Q9BYF1); spike protein binding; with: SARS-CoV-2 spike protein): -95%
COc1cccc(-c2nc(C(=O)NCC=CS(C)(=O)=O)c(C)[nH]2)c1 — kinact/KI (Polyprotein P1234, nsP2 protease domain (Chikungunya virus, UniProt Q5XXP4); time-dependent inhibitor): 460 ± 52 M⁻¹ s⁻¹
O=C(/C=C/c1ccc(O)c2oc(-c3ccc(O)c(O)c3)cc12)O[C@H](Cc1ccc(O)c(O)c1)C(=O)O — koff (Spike glycoprotein; binding, biolayer interferometry): 0.00388 s⁻¹
O=C(N[C@@H](CNC(=O)[C@@H]1CCCc2cn[nH]c21)c1ccc2ccccc2c1)c1cccnc1 — inhibition (rep main protease; enzyme activity, inhibitor; 5 µM, mean of runs): 13.1%
CC(C)C[C@H](NC(=O)CNC(=O)[C@H](CC(C)C)NC(=O)[C@H](CC(C)C)NC(=O)[C@H](CC(C)C)NC(=O)[C@H](CCCCN)NC(=O)[C@H](CCCCN)NC(=O)[C@H](CC(C)C)NC(=O)[C@@H](N)CCCCN)C(=O)N[C@@H](CC(C)C)C(=O)N[C@@H](CC(C)C)C(=O)N[C@@H](CCCCN)C(=O)N[C@@H](CCCCN)C(=O)O — lowest cytotoxic concentration (HEK-293T; cell death; 24 h, 10% cell death): > 256 µg/mL
CCCC(C)NC(=O)c1ccc(Cl)c(Cl)c1 (stereo not drawn) — inhibition (rep main protease; viral replication, Gluc reporter; SARS-CoV-2; 20 µM): 3.75%
O=C(c1ccc2c(c1)COC2)N1CCCC[C@H](C2CN(C(=O)c3cncc4[nH]cnc34)C2)C1 — inhibition (rep main protease; enzyme activity, inhibitor; 5 µM, mean of runs): 16.3%
Cc1ccc2nc(Cl)c3cc(C(=O)NCCCN4CCC(C)CC4)sc3c2c1 — efficacy (SARS-CoV-2; cytopathic effect; USA_WA1/2020; retest, 8-point, duplicates): 91.1%
COc1ccc(C[C@@H]2c3cc(Oc4cc(C[C@@H]5c6cc(O)c(OC)cc6CCN5C)ccc4O)c(OC)cc3CCN2C)cc1 — kon (Spike glycoprotein; binding): 483 M⁻¹ s⁻¹
COc1oc(=O)c2cc(N)ccc2c1Cl — inhibition (rep main protease; viral replication, Gluc reporter; SARS-CoV-2; 20 µM): 0.809%
Nc1ncnc2c([C@@H]3N[C@H](CO)[C@@H](O)[C@H]3O)c[nH]c12 — inhibition (Venezuelan equine encephalitis virus; viral replication; HeLa, SH3; 25 µM): 0.5%
CNC(=O)[C@@H](NC(=O)[C@H](CC(C)C)[C@H](O)C(=O)NO)C(C)(C)C — remaining fibrinogen Aα chain (human fibrinogen; SDS-PAGE; Daboia russelii; concentration not given, unit not given, with: WB venom; baseline: untreated fibrinogen): 0.205
C[C@H]1CC[C@@]2(OC1)O[C@H]1C[C@H]3[C@@H]4CC[C@@H]5C[C@@H](O[C@@H]6O[C@H](CO)[C@H](O)[C@H](O)[C@H]6O[C@@H]6O[C@H](CO)[C@@H](O)[C@H](O)[C@H]6O)CC[C@]5(C)[C@H]4CC[C@]3(C)[C@H]1[C@@H]2C — kon (Spike glycoprotein; binding, BLI): 9900 M⁻¹ s⁻¹
O=C(O)c1cc(OCCNC(=O)c2cc(OCc3cn([C@@H]4O[C@H](CO)[C@H](O[C@H]5O[C@H](CO)[C@H](O)[C@H](O)[C@H]5O)[C@H](O)[C@H]4O)nn3)cc(OCc3cn([C@@H]4O[C@H](CO)[C@H](O[C@H]5O[C@H](CO)[C@H](O)[C@H](O)[C@H]5O)[C@H](O)[C@H]4O)nn3)c2)cc(OCCNC(=O)c2cc(OCc3cn([C@@H]4O[C@H](CO)[C@H](O[C@H]5O[C@H](CO)[C@H](O)[C@H](O)[C@H]5O)[C@H](O)[C@H]4O)nn3)cc(OCc3cn([C@@H]4O[C@H](CO)[C@H](O[C@H]5O[C@H](CO)[C@H](O)[C@H](O)[C@H]5O)[C@H](O)[C@H]4O)nn3)c2)c1 — Hill slope (Shiga toxin subunit B (stxB, Shigella dysenteriae, UniProt Q7BQ98); Escherichia coli): -1.13
Cc1ccc(C(=O)N2CC3(CCC3)C[C@H]2CNC(=O)c2cncc3[nH]cnc23)cc1O — inhibition (rep main protease; enzyme activity, inhibitor; 5 µM, mean of runs): 16.6%
O=c1cc(O)c2ccccc2o1 — inhibition (rep main protease; reporter gene (mKate2), inhibitor; 20 µM): -0.882%
Cc1ccc(C(C)Nc2nc(N3CCNCC3)nc3ccccc23)cc1 (stereo not drawn) — AC50 (SARS-CoV-2; cytopathic effect, cell-based CPE; USA_WA1/2020; round 2, 5-point dilution): 5.01 µM
C[C@@H]1CC[C@]2(C(=O)O[C@@H]3O[C@H](CO)[C@@H](O)[C@H](O)[C@H]3O)CC[C@]3(C)C(=CC[C@@H]4[C@@]5(C)C[C@@H](O)[C@H](O)C(C)(C)[C@@H]5CC[C@]43C)[C@@H]2[C@]1(C)O — inhibition (rep main protease; reporter gene (Gaussia luciferase), inhibitor; 20 µM): 1.77%
CC[C@H](C)[C@H](NC(=O)[C@H](CC(C)C)NC(=O)[C@H](Cc1c[nH]c2ccccc12)NC(=O)[C@H](CCC(N)=O)NC(=O)[C@@H](NC(=O)[C@H](Cc1ccccc1)NC(=O)[C@H](C)NC(=O)[C@H](CCCCNC(=O)COCCOCCNC(=O)COCCOCCNC(=O)CC[C@H](NC(=O)CCCCCCCCCCCCCCCCCCC(=O)O)C(=O)O)NC(=O)[C@H](CCC(N)=O)NC(=O)[C@H](C)NC(=O)[C@@H](NC(=O)[C@H](CCCCN)NC(=O)[C@H](CC(=O)O)NC(=O)[C@H](CC(C)C)NC(=O)C(C)(C)NC(=O)[C@@H](NC(=O)[C@H](CO)NC(=O)[C@H](Cc1ccc(O)cc1)NC(=O)[C@H](CC(=O)O)NC(=O)[C@H](CO)NC(=O)[C@@H](NC(=O)[C@H](Cc1ccccc1)NC(=O)[C@@H](NC(=O)CNC(=O)[C@H](CCC(=O)O)NC(=O)C(C)(C)NC(=O)[C@@H](N)Cc1ccc(O)cc1)[C@@H](C)O)[C@@H](C)O)[C@@H](C)CC)[C@@H](C)CC)C(C)C)C(=O)N[C@@H](C)C(=O)NCC(=O)NCC(=O)N1CCC[C@H]1C(=O)N[C@@H](CO)C(=O)N[C@@H](CO)C(=O)NCC(=O)N[C@@H](C)C(=O)N1CCC[C@H]1C(=O)N1CCC[C@H]1C(=O)N1CCC[C@H]1C(=O)N[C@@H](CO)C(N)=O — subjects with treatment-emergent ADA (measured: anti-drug antibodies; patients with type 2 diabetes; 5/5/10/15 mg escalating, post-baseline): 0%

A few entries again:
O=C(N[C@@H](CNC(=O)[C@@H]1CCCc2cn[nH]c21)c1ccc2ccccc2c1)c1cccnc1 — inhibition (rep main protease; enzyme activity, inhibitor; 5 µM, mean of runs): 13.1%
